# Measured values from different studies.
# Matrix: plasma
Structure (SMILES),system,conditions,how to read,Cmax
COc1ccsc1CNCC[C@@]1(c2ccccn2)CCOC2(CCCC2)C1,"healthy human, normal renal function","intravenous, 1 mg single dose, arithmetic mean",,8.97 ng/mL
Cc1ncc2n1-c1ccc(Cl)cc1C(c1ccccc1F)=NC2,human,"oral, 2 mg, geometric mean, with: fenebrutinib 200 mg twice daily",,14.8 ng/mL
COc1ccc(C[C@@H]2NC(=O)[C@H]([C@@H](C)O)NC(=O)[C@@H]3[C@@H]4CCN3C(=O)[C@@H]3Cc5cn(c6ccc(F)cc56)CCCCCCN(Cc5ccc(cc5)CCNC(=O)[C@]5(C)CCCN5C2=O)C(=O)CCC(=O)N[C@@H](C)C(=O)N[C@H](CNC(=O)CCCCC[N+](C)(C)C)C(=O)N[C@@H](Cc2cccc(c2)CNC(=O)CO4)C(=O)N3)cc1,fasted healthy humans,"oral, 35 mg single dose, with 1800 mg Labrasol, geometric mean",,17.8 nM
CCC(=O)C(CC(C)N(C)C)(c1ccccc1)c1ccccc1 (stereo not shown),human,"oral, 40 mg, day 9, steady state, dose-normalized, with: fesoterodine 600 mg ER twice daily",,415 ng/mL
Cc1cnc(C(=O)N[C@H]2CCCCC/C=C\[C@@H]3C[C@@]3(C(=O)NS(=O)(=O)C3CC3)NC(=O)[C@@H]3C[C@@H](Oc4nc5ccccc5c5ccccc45)CN3C2=O)cn1,healthy human volunteers,"oral, dose not given, rosuvastatin interaction study",baseline: given without rosuvastatin,296 ng/mL
CC[C@H](C)[C@H](NC(=O)[C@H](CC(C)C)NC(=O)[C@H](Cc1c[nH]c2ccccc12)NC(=O)[C@H](CCC(N)=O)NC(=O)[C@@H](NC(=O)[C@H](Cc1ccccc1)NC(=O)[C@H](C)NC(=O)[C@H](CCCCNC(=O)COCCOCCNC(=O)COCCOCCNC(=O)CC[C@H](NC(=O)CCCCCCCCCCCCCCCCCCC(=O)O)C(=O)O)NC(=O)[C@H](CCC(N)=O)NC(=O)[C@H](C)NC(=O)[C@@H](NC(=O)[C@H](CCCCN)NC(=O)[C@H](CC(=O)O)NC(=O)[C@H](CC(C)C)NC(=O)C(C)(C)NC(=O)[C@@H](NC(=O)[C@H](CO)NC(=O)[C@H](Cc1ccc(O)cc1)NC(=O)[C@H](CC(=O)O)NC(=O)[C@H](CO)NC(=O)[C@@H](NC(=O)[C@H](Cc1ccccc1)NC(=O)[C@@H](NC(=O)CNC(=O)[C@H](CCC(=O)O)NC(=O)C(C)(C)NC(=O)[C@@H](N)Cc1ccc(O)cc1)[C@@H](C)O)[C@@H](C)O)[C@@H](C)CC)[C@@H](C)CC)C(C)C)C(=O)N[C@@H](C)C(=O)NCC(=O)NCC(=O)N1CCC[C@H]1C(=O)N[C@@H](CO)C(=O)N[C@@H](CO)C(=O)NCC(=O)N[C@@H](C)C(=O)N1CCC[C@H]1C(=O)N1CCC[C@H]1C(=O)N1CCC[C@H]1C(=O)N[C@@H](CO)C(N)=O,"human, moderate renal impairment","subcutaneous, 5 mg single dose, eGFR 30-59, geometric mean",,369 ng/mL
COC(=O)N[C@H](C(=O)N1CCC[C@H]1C(=O)Nc1ccc([C@@H]2CC[C@@H](c3ccc(NC(=O)[C@@H]4CCCN4C(=O)[C@@H](NC(=O)OC)C(C)C)cc3)N2c2ccc(C(C)(C)C)cc2)cc1)C(C)C,healthy human volunteers,"oral, dose not given, with: escitalopram plus 2D regimen",,128 ng/mL
CC[C@@]1(O)C(=O)OCc2c1cc1n(c2=O)Cc2cc3c(CN(C)C)c(O)ccc3nc2-1,human patients,"oral, 8 mg weekly, day 15, geometric mean, with: pazopanib 800 mg daily",,43.6 ng/mL
CC(C)c1nc(CN(C)C(=O)N[C@H](C(=O)N[C@@H](Cc2ccccc2)C[C@H](O)[C@H](Cc2ccccc2)NC(=O)OCc2cncs2)C(C)C)cs1,healthy human volunteers,"oral, dose not given, with: digoxin plus 2D regimen",,2290 ng/mL
O[C@H]1CCCN[C@@H]1CCCn1cnc2c(Cl)c(Cl)ccc21,healthy human volunteers,"oral, 50 mg, day 1, multiple ascending dose",,70 ng/mL

# For quick reference, copied from above:
Structure (SMILES),system,conditions,how to read,Cmax
CCC(=O)C(CC(C)N(C)C)(c1ccccc1)c1ccccc1 (stereo not shown),human,"oral, 40 mg, day 9, steady state, dose-normalized, with: fesoterodine 600 mg ER twice daily",,415 ng/mL
